{"data": "Assay results collected from several papers", "B1": "UGT1A9 (Homo sapiens, UniProt O60656); chain GKLLVVPMDGSHWFTMRSVVEKLILRGHEVVVVMPEVSWQLGRSLNCTVKTYSTSYTLEDLDREFKAFAHAQWKAQVRSIYSLLMGSYNDIFDLFFSNCRSLFKDKKLVEYLKESSFDAVFLDPFDNCGLIVAKYFSLPSVVFARGILCHYLEEGAQCPAPLSYVPRILLGFSDAMTFKERVRNHIMHLEEHLLCHRFFKNALEIASEILQTPVTEYDLYSHTSIWLLRTDFVLDYPKPVMPNMIFIGGINCHQGKPLPMEFEAYINASGEHGIVVFSLGSMVSEIPEKKAMAIADALGKIPQTVLWRYTGTRPSNLANNTILVKWLPQNDLLGHPMTRAFITHAGSHGVYESICNGVPMVMMPLFGDQMDNAKRMETKGAGVTLNVLEMTSEDLENALKAVINDKSYKENIMRLSSLHKDRPVEPLDLAVFWVEFVMRHKGAPHLRPAAHDLTWYQYHSLDVIGFLLAVVLTVAFITFKCCAYGYRKCLGKKGRVKKAHKSKTH", "B2": "GSTP1 3-210 I105V (Homo sapiens, UniProt P09211); QSY 35 label; chain PYTVVYFPVRGRCAALRMLLADQGQSWKEEVVTVETWQEGSLKASCLYGQLPKFQDGDLTLYQSNTILRHLGRTLGLYGKDQQEAALVDMVNDGVEDLRCKYVSLIYTNYEAGKDDYVKALPGQLKPFETLLSQNQGGKTFIVGDQISFADYNLLDLLLIHEVLAPGCLDAFPLLSAYVGRLSARPKLKAFLASPEYVNLPINGNGKQ", "B3": "GLI2 zinc fingers 1-4 (Homo sapiens); chain KEDLDRDDCKQEAEVVIYETNCHWEDCTKEYDTQEQLVHHINNEHIHGEKKEFVCRWQACTREQKPFKAQYMLVVHMRRHTGEKPHKCTFEGCSKAYSRLENLKTHLRSHTGEKPYVCEHEGCNKAFSNASDRAKHQNRTH", "note": "Lines come from different studies, so protocols differ. “And” joins repeats or separate records; there may be more than shown. ± marks the error that the study gave. Bridges are numbered along the chain shown (N, C = ends). Where no end group is shown, it is not given here.", "UniProt Q2M1P5, sequence (whole entry, looked up)": "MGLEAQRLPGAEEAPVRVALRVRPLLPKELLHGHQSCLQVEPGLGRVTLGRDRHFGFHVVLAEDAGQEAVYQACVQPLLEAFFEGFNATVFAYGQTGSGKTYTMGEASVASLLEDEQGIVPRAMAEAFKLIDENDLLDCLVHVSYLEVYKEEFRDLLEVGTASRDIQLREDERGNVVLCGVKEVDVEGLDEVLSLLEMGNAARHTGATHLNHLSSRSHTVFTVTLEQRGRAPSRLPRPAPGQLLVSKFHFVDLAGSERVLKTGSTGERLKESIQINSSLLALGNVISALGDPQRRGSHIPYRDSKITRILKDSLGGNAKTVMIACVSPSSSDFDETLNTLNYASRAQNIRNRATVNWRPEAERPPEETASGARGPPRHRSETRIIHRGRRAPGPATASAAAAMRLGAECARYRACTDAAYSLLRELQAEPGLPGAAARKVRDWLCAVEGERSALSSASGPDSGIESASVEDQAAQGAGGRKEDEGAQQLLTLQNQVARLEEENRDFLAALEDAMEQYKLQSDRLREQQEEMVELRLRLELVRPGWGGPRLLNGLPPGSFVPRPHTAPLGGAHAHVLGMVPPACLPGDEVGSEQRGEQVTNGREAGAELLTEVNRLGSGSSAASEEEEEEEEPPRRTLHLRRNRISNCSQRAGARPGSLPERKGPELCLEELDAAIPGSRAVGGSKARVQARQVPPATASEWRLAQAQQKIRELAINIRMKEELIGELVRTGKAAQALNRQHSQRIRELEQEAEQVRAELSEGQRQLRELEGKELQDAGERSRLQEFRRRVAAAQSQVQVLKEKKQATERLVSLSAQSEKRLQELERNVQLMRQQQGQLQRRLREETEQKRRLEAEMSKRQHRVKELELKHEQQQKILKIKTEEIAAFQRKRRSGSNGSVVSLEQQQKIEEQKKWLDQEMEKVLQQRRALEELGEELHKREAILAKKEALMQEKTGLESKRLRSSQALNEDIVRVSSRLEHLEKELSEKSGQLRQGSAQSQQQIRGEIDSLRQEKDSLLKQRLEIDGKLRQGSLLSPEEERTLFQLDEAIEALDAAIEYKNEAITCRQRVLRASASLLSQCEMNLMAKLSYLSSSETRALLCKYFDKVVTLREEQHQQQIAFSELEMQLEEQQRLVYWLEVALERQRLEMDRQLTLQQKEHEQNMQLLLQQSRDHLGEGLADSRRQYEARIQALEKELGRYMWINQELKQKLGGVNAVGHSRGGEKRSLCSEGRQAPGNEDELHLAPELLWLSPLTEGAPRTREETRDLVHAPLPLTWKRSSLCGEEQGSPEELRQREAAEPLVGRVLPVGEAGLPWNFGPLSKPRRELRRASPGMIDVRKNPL", "UniProt P31266, sequence (whole entry, looked up)": "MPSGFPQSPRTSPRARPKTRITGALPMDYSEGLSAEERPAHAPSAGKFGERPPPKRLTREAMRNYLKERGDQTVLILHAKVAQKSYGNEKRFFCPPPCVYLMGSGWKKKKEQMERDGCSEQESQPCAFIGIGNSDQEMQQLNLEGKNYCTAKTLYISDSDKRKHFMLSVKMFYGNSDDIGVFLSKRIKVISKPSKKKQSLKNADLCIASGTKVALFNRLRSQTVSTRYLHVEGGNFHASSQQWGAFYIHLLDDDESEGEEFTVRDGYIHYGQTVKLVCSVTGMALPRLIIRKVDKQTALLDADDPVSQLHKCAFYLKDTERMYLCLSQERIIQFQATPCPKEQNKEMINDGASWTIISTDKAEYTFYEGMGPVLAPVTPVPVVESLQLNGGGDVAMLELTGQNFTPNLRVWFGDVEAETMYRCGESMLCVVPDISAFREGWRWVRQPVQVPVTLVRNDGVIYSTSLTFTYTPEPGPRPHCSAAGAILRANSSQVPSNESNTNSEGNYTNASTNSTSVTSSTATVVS", "UniProt O00585, sequence (whole entry, looked up)": "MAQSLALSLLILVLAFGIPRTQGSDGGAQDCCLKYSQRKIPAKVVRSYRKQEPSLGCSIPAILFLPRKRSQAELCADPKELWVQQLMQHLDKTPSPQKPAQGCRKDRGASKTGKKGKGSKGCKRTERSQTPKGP", "UniProt P30041, sequence (whole entry, looked up)": "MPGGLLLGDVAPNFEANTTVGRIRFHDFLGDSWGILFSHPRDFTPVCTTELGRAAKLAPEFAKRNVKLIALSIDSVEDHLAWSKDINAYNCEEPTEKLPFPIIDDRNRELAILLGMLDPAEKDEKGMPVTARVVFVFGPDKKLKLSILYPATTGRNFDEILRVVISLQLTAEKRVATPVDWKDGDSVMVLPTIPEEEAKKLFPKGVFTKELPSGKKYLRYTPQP", "UniProt P28702, sequence (whole entry, looked up)": "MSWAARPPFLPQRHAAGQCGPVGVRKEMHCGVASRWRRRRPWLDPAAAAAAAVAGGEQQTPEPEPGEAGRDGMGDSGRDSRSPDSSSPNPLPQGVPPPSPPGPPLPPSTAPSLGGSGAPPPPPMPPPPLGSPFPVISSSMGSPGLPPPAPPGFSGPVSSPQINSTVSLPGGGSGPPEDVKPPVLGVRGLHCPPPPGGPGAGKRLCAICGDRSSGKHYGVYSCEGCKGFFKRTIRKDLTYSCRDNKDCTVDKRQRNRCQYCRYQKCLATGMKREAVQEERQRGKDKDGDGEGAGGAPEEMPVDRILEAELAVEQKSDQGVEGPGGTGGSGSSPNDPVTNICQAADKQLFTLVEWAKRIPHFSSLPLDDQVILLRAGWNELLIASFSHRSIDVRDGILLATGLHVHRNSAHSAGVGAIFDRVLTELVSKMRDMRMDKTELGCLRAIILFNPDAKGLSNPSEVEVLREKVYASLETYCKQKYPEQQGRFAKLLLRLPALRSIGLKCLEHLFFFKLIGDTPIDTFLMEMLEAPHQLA"}
{"Substance": "B1 (UGT1A9)", "tested on": "O=C(/C=C/c1ccc(O)cc1)c1ccccc1", "test": "steady-state kinetics", "setting": "pH 7.4, 37 °C", "endpoint": "Vmax", "value": "5.48e-05 µmol/min/mg"}
{"Substance": "KLLITIHDRKEFAKFEEERARAKW (ITGB3 742-765 (Homo sapiens, UniProt P05106); sequence looked up)", "tested on": "Myom1 IgC2 domains 4-5 C1354S (Mus musculus)", "test": "ITC", "test system": "peptide", "setting": "pH 6.8, 25 °C, NaCl 50 mM", "endpoint": "Kd", "value": "37.2 µM"}
{"Substance": "{FAM-Ahx}-CRVLRSGSC-OH (CRV peptide; disulfide 1-9; cyclic, N-terminal carboxyfluorescein, aminohexanoic linker; FAM = carboxyfluorescein; Ahx = NCCCCCC(=O)O)", "tested on": "RXRB (Homo sapiens, UniProt P28702)", "test": "SPR", "test system": "peptide", "setting": "equilibrium not reached", "endpoint": "Kd", "value": "> 1000 µM"}
{"Substance": "QDEVTDDYIGDNTTVDYTLFESLCSKKDVRNFKAW (CCR7 N-terminus (x))", "tested on": "CCL21 (Homo sapiens, UniProt O00585)", "test": "NMR titration", "test system": "peptide", "endpoint": "Kd", "value": "150 ± 30 µM"}
{"Substance": "B2 (GSTP1 3-210 I105V)", "tested on": "PRDX6 1-224, Alexa 546 label (Homo sapiens, UniProt P30041)", "test": "FRET", "setting": "pH 7.4, apparent, added: GSH 1 mM", "endpoint": "Kd", "value": "0.101 µM"}
{"Substance": "B3 (GLI2 zinc fingers 1-4)", "tested on": "KIF7 460-600 (Homo sapiens, UniProt Q2M1P5)", "test": "BLI", "endpoint": "Kd", "value": "0.103 µM and 0.16 µM"}
{"Substance": "{5,6‑carboxyfluorescein}-ATFLIQEYFRKFKKRKEQGLVGKPSQ (CACNA1C 1650-1675 (Oryctolagus cuniculus); N-terminal fluorescein)", "tested on": "Calm1 fragment (Rattus norvegicus)", "test": "fluorescence polarisation", "test system": "peptide", "setting": "pH 7.4, 22 °C, 100 mM KCl, without Ca2+", "endpoint": "Kd", "value": "804 ± 103 µM"}
{"Substance": "GP6 fragment (Homo sapiens)", "tested on": "collagen III Toolkit peptide III-9, hydroxyproline, C-terminal amide (Homo sapiens)", "test": "ELISA", "endpoint": "Kd", "value": "> 0.09 µM"}
{"Substance": "ARTK(Me3)QTARKSTG (histone H3 peptide 2-13 (UniProt P68431); K4me3; sequence looked up)", "tested on": "DIDO1 PHD finger 266-325 (UniProt Q9BTC0-4)", "test": "fluorescence titration, NMR titration", "test system": "peptide", "endpoint": "Kd", "value": "1 µM"}
{"Substance": "MENVKKATATATWMVPTAQ (L3MBTL3 52-70 T62A (Homo sapiens, UniProt Q96JM7-2); sequence looked up)", "tested on": "Rbpj 53-474 (Mus musculus, UniProt P31266)", "test": "ITC", "test system": "peptide", "setting": "pH 6.5, 25 °C, NaCl 150 mM, one site model", "endpoint": "Kd", "value": "0.3 µM"}
{"note": "For quick reference, copied from above:"}
{"Substance": "B1 (UGT1A9)", "tested on": "O=C(/C=C/c1ccc(O)cc1)c1ccccc1", "test": "steady-state kinetics", "setting": "pH 7.4, 37 °C", "endpoint": "Vmax", "value": "5.48e-05 µmol/min/mg"}
{"Substance": "MENVKKATATATWMVPTAQ (L3MBTL3 52-70 T62A (Homo sapiens, UniProt Q96JM7-2); sequence looked up)", "tested on": "Rbpj 53-474 (Mus musculus, UniProt P31266)", "test": "ITC", "test system": "peptide", "setting": "pH 6.5, 25 °C, NaCl 150 mM, one site model", "endpoint": "Kd", "value": "0.3 µM"}
